Assay results gathered from unrelated publications.
Parts stem from different laboratories: compare values within a part only. Substitutions count along the parent as printed.

Sample 1 — target: CCNB3, cyclin fold, Cln2 fusion (human); technique: yeast growth competition, sequencing; matrix: yeast; notes: weak parent motif; baseline: not given; direction: higher = stronger binding; measurement: normalised enrichment score
Starting sequence: MICAL3 docking peptide (human); LQLRRQLSFSEDS; partner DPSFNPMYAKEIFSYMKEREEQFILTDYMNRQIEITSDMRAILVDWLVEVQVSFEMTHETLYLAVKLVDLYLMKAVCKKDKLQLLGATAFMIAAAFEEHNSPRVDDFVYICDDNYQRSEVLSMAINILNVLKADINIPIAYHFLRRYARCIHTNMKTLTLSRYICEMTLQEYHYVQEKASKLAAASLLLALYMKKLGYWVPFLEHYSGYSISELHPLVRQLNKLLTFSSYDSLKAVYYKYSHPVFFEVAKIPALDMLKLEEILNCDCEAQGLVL
L7I: 0.176
S8M: 0.154
L7C: 0.0512
Q6W: 0.297
E11W: 0.288
S8D: 0.126
Q6C: 0.471
L7E: 0.347

Sample 2 — technique: protein binding microarray; molecule type: double-stranded DNA, one strand shown; matrix: in vitro; tested at: not given; baseline: not given; direction: higher = stronger binding; measurement: E-score
Target: Histone acetyltransferase KAT6A, both winged helices, GST fusion (KAT6A, Homo sapiens, UniProt Q92794, residues 1-181)
Notes: 8-mer, flanks averaged, mean of 2 arrays, mostly near background
Target sequence (chain): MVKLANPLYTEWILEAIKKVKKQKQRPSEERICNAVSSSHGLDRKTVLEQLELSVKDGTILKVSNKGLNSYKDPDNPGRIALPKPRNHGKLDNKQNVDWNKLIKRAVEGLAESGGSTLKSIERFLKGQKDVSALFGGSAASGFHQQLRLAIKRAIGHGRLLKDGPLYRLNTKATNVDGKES
ACCAAGAT: -0.127
AGCCTAAG: -0.157
GCTACTAC: 0.00645
AGGGTTAG: -0.167
AAAGACGA: -0.168
GACGCTCA: 0.118
GGTATAAC: -0.0258
GACATGAC: 0.0308
TAATGGCA: 0.00812
CGTCCCTA: 0.00183
ACACTCGT: -0.141
ACCACCGA: -0.0086
ACACCTTA: -0.0502
GATGATGC: -0.0121
GTAGGGTA: -0.159

Sample 3 — technique: RNA Bind-n-Seq; molecule type: RNA; matrix: in vitro; tested at: 365 nM; baseline: no-protein control; direction: higher = stronger binding; measurement: RBNS enrichment (R)
Target: RNA binding protein fox-1 homolog 2, RRM domain, GST-SBP tag (RBFOX2, Homo sapiens, UniProt O43251-10, residues 100-194)
Notes: natural RNA segment, single round, ends assumed
Residues (chain): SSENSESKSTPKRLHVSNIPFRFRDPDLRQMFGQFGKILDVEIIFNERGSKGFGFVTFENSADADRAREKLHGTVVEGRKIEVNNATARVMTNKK
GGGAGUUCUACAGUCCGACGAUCUAUCAUGGUGAACCAUUUAUUUAACUGUUGAUCUAGUCACCAAUACCUAGAAGACACCAUAAUCAGUUUAUUUACAACAACCACAUCAUCAGUUGCUUUUGUCGAACAUCUGGAAUUCUCGGGUGCCAA: 0.276
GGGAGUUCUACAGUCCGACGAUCACUGUAAUGAUAAUCUUUCUCACGUAUAUACAUGCAACUUCUUGGCUUCAUUUCCAUGAAGCUGUUUCAAUAUAUUCAGUAUACUUUGUCCUUAAUGCUGCUUCUGUUAAUGGAAUUCUCGGGUGCCAA: 0.512
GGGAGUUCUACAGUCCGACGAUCGAGUAGAUUUUCUUGGAUUUCAGAACAUCUAGCAUGACUCUGAAGGAUACCACAUGUUUUAUAUAUAAAUAAUUACUGUUUAUGAUAUAGACAUUGAUAUUGACUAUUUAUGGAAUUCUCGGGUGCCAA: 3.02
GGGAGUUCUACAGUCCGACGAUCUCCCUGAGCAUCUGGAGACACCUGGAGCAUGAAACCUUCUGUAAUCGCUGAGAUCUGUAACUUACAGGACACUCAAAGGGCAAUGGUUUUUUUUGGGGGGGGGGUUGUUUUGGAAUUCUCGGGUGCCAA: 1.72
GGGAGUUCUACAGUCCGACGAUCGAUUUAUAAACACAGUGCUCUGAAAGGAAUCUUACAGACUGUAUCAGUCUAGCUUUUAAUUAAGUUAUUUUGUAUAGCUUAAUUUGUAAAACAUUUUAUGUUUUUUAGAUUGGAAUUCUCGGGUGCCAA: 0.458
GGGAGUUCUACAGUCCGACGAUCUCAAAGGUAACAUGCAACUUAGUUCUGUUAUAUGAGAGUCUUUUUCUUUAAUGUACUGGAAAAAGCCUAUGUGAAUCUGUUGAUAGAAUUUAAAAUUCCAGGCCGGGCGUUGGAAUUCUCGGGUGCCAA: 0.532
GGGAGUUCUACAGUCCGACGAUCUCUGCAGGCCACACCAGUGGCCACAGGGGCCAUUUUGUCUUGUUGAUGCUGAAACCAUGCUGGACUGCCCCAGGCUAAGGCAGGACUGUCUGUGCAAGGCACUACAGCUAUGGAAUUCUCGGGUGCCAA: 0.294
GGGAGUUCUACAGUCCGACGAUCGCGUCAAGAGCAGUUGACUCACUGAUGAAGGCCCUGGUGAGGAGAAAGCACUCUGUUCUUCGCCUACUCUGUAAUCGUUUUGUCAUAAUGAGCCAUGAAAAAAGUAAUGAUGGAAUUCUCGGGUGCCAA: 1.4
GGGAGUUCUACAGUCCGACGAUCUGGCUCGCUCUGGACCCUGCUCUCCCCAGCCACGUUCUGUAGUCUGUUGUACAUCUCAGGAACCCUCGGUUCCUCCACGGAUGGACGACUGCAGAAUAGAGCAGAAUAGAUGGAAUUCUCGGGUGCCAA: 0.177
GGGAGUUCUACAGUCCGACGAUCCUGGGUAUAAUUUGCACUUUUGAGACUGGUAGCUAACCAUCUUAUGAGUGCCAAUGUGUCAUUUAGUAAAACUUAAAUAGAAACAAGGUCCUUCAAAUGUUCCUUUGGCCUGGAAUUCUCGGGUGCCAA: 0.28
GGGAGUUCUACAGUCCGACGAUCUUAAUAAAAGUUGUAUGAUAAAUCAUUAAAAAUGCGAGUGUAAAUAUUUUUUUUUACCUCUAUCAGGGUUUUUAUUUGAAAGUGUGCUCUUACCAUUUCCUUGUUUGAGUUGGAAUUCUCGGGUGCCAA: 0.763
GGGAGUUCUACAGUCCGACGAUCGCCCAGUAAGUAUGACGGUCGUGUCGCCUAACCAACGCAGAGCAGUGCUUUUUGUGUGGCUGAAGCGAUGUGCUGACGAAAAAAGGAAAAUUCUAGGACAAUCGUUGGCUUGGAAUUCUCGGGUGCCAA: 0.251

Further values, each from its own experiment
PhoQ, residues 284 288 289 292 302 303 ALASRC — fold induction (PhoP, residues 12 14 15 18 19 TQAIL (Escherichia coli, UniProt P23836); Sort-seq, refers to: YFP reporter; E. coli; PhoQ-PhoP variant library, with: 10 µM Mg2+; baseline: high Mg2+ state, higher = stronger signaling): 14.8
